{"data": "Results of several laboratories", "note": "Lines come from different studies, so protocols differ. Numbers after ± are the reported error."}
{"SMILES": "Cn1cnc2c(F)c(Nc3ccc(Br)cc3F)c(C(=O)NOCCO)cc21", "target": "NLRP3 inflammasome (mouse)", "test system": "mouse BMDM", "setting": "10 µM", "endpoint": "inhibition", "value": "-12%"}
{"SMILES": "CN1C[C@H](COc2nccc3c(NCc4ccco4)cc(Cl)nc23)OC1=O", "target": "human alpha-galactosidase A", "assay": "activator", "test system": "Fabry disease iPSC-cardiomyocytes", "setting": "1 µM", "scale": "reference: untreated", "endpoint": "enzyme activity", "value": "1.47 fold"}
{"SMILES": "N=C(NCCCSC[C@H]1O[C@@H](n2cnc3c(NCCCc4ccccc4)ncnc32)[C@H](O)[C@@H]1O)NC1CCC1", "target": "CamA DNA adenine methyltransferase (Clostridioides difficile)", "assay": "enzyme activity, inhibitor, MTase-Glo luminescence (SAH)", "setting": "10 µM, 3 min, pH 7.5, 22 °C, with: SAM 40 µM", "endpoint": "inhibition", "value": "< 10%"}
{"SMILES": "O=C(O)CSc1nc(Cl)cc(Nc2cccc(OCCc3ccccc3)c2)n1", "target": "PPARγ LBD, human", "assay": "inhibitor, HTRF, item: CBP peptide", "setting": "concentration not given, with: pioglitazone", "endpoint": "coactivator recruitment", "value": "decreased"}
{"SMILES": "C#C[C@]1(O)CC[C@H]2[C@@H]3CCc4cc(O)ccc4[C@H]3CC[C@@]21C", "target": "androgen receptor pathway", "assay": "antagonist", "setting": "concentration not given", "scale": "direction not given", "endpoint": "AUC antagonist score", "value": 1}
{"SMILES": "N=C(NCCCSC[C@H]1O[C@@H](n2cnc3c(NCCCc4ccccc4)ncnc32)[C@H](O)[C@@H]1O)NCC1CCC1", "target": "CamA DNA adenine methyltransferase (Clostridioides difficile)", "assay": "enzyme activity, inhibitor, MTase-Glo luminescence (SAH)", "setting": "10 µM, 3 min, pH 7.5, 22 °C, with: SAM 40 µM", "endpoint": "inhibition", "value": "< 10%"}
{"SMILES": "c1ccc(-c2n[nH]cc2-c2ccnc3ccccc23)nc1", "target": "orf19.3456 kinase Candida albicans", "assay": "MIB/MS competition binding", "test system": "Candida albicans cell lysate", "setting": "10 µM", "scale": "reference: DMSO, lower = stronger binding", "endpoint": "log2 fold change", "value": 1.04}
{"SMILES": "CCCN1CCCC[C@H]1C(=O)Nc1c(C)cccc1C", "target": "seizure ion channel panel", "assay": "ion current, inhibitor", "scale": "lowest across channels", "endpoint": "lowest IC30", "value": "> 30 µM"}
{"SMILES": "N#Cc1ccn2c(-c3ccncc3)c(-c3ccc(F)cc3)nc2c1", "target": "orf19.3456 kinase Candida albicans", "assay": "MIB/MS competition binding", "test system": "Candida albicans cell lysate", "setting": "10 µM", "scale": "reference: DMSO, lower = stronger binding", "endpoint": "log2 fold change", "value": -0.0719}
{"SMILES": "Nc1ncc2c(n1)-c1c([nH]c3ccc(C#CC4CC4)cc13)CCCC2", "target": "FLT3 ITD F691L", "assay": "scanMAX", "setting": "1 µM", "scale": "reference: control", "endpoint": "remaining binding", "value": "61%"}
{"SMILES": "CC(C)C[C@@H]1NC(=O)[C@@H]2CSSC[C@@H](C(=O)NCC(N)=O)NC(=O)[C@H](Cc3ccccc3)NC(=O)CNC(=O)[C@H](CC(N)=O)NC(=O)[C@@H]3CCCN3C(=O)CNC(=O)[C@@H]3CSSC[C@H](NC(=O)[C@H]([C@@H](C)O)NC(=O)[C@H](CC(C)C)NC(=O)[C@@H]4CCCN4C(=O)[C@@H]4CCCN4C(=O)[C@H](CC(N)=O)NC(=O)[C@H](CC(=O)O)NC(=O)CNC(=O)[C@H](CCCNC(=N)N)NC(=O)[C@@H]4CCCN4C(=O)[C@H](CCCNC(=N)N)NC(=O)[C@@H]4CCCN4C(=O)[C@@H](NC(=O)CNC(=O)c4ccc(-c5c6ccc(=N)c(S(=O)(=O)O)c-6oc6c(S(=O)(=O)O)c(N)ccc56)c(C(=O)O)c4)CSSC[C@H](NC(=O)CNC(=O)[C@H](C)NC1=O)C(=O)N[C@@H](C(C)C)C(=O)N3)C(=O)N[C@@H](CO)C(=O)N[C@@H](CCC(N)=O)C(=O)N[C@@H](CC(=O)O)C(=O)N[C@@H](CO)C(=O)N[C@@H](CC(=O)O)C(=O)N2", "target": "integrin, human", "assay": "binding, flow cytometry", "test system": "U-87 MG", "setting": "10 h, 4 °C", "endpoint": "Kd", "value": "0.00036 ± 5e-05 µM"}
{"SMILES": "c1coc(-c2n[nH]cc2-c2ccnc3ccccc23)c1", "target": "TOR1 (Candida albicans)", "assay": "kinase binding, MIB/MS competition", "test system": "Candida albicans lysate", "setting": "1 µM", "scale": "reference: DMSO", "endpoint": "log2 fold change", "value": -0.18}
{"SMILES": "CC1(C)NC(=O)N(c2ccc([N+](=O)[O-])c(C(F)(F)F)c2)C1=O", "target": "androgen receptor pathway", "assay": "agonist", "setting": "concentration not given", "scale": "direction not given", "endpoint": "AUC agonist score", "value": 0}
{"SMILES": "CCC(=O)NC[C@@H]1C[C@H]1c1cccc2c1CCO2", "target": "seizure ion channel panel", "assay": "ion current, inhibitor", "scale": "lowest across channels", "endpoint": "lowest IC30", "value": "> 30 µM"}
{"SMILES": "Cc1n[nH]c2ccc(-c3cc(OC[C@@H](N)Cc4ccccc4)cnc3-c3ccoc3)cc12", "target": "orf19.3456 kinase Candida albicans", "assay": "MIB/MS competition binding", "test system": "Candida albicans cell lysate", "setting": "1 µM", "scale": "reference: DMSO, lower = stronger binding", "endpoint": "log2 fold change", "value": -0.791}
{"SMILES": "CC#C[C@]1(O)CC[C@H]2[C@@H]3CCC4=CC(=O)CCC4=C3[C@@H](c3ccc(N(C)C)cc3)C[C@@]21C", "target": "androgen receptor pathway", "assay": "antagonist", "setting": "concentration not given", "scale": "direction not given", "endpoint": "AUC antagonist score", "value": 1.21}
{"SMILES": "CC(Nc1nc(N2CCCC2)nc2ccccc12)c1ccccc1 (stereo not shown)", "target": "importin α/β1", "assay": "cMyc nuclear import, high content imaging", "test system": "HeLa Kyoto reporter", "setting": "0.5 µM, 2 h", "endpoint": "cells with nuclear reporter", "value": "87.5%"}
{"SMILES": "CO[C@@H](C(=O)N1Cc2[nH]nc(NC(=O)c3ccc(N4CCN(C)CC4)cc3)c2C1)c1ccccc1", "target": "NLRP3 inflammasome (mouse)", "test system": "mouse BMDM", "setting": "10 µM", "endpoint": "inhibition", "value": "-61%"}
{"SMILES": "C=CC(=O)N1CCC(C(=O)NCC(=O)N2CCN(c3nc(-c4cnc(N)nc4C(F)F)nc(N4CCOCC4)n3)CC2)CC1", "target": "FLT3 ITD/F691L", "assay": "KINOMEscan", "setting": "1 µM", "scale": "reference: vehicle", "endpoint": "remaining binding", "value": "95%"}
{"SMILES": "CCN1CCN(Cc2ccc(C(=O)Nc3ccc(C)c(Oc4ccc5c(c4)CC(=O)N5)c3)cc2C(F)(F)F)CC1", "target": "FLT3 ITD", "assay": "KINOMEscan", "setting": "1 µM", "scale": "reference: control", "endpoint": "remaining binding", "value": "81%"}
{"SMILES": "CN[C@H]1CC[C@@H](c2ccc(Cl)c(Cl)c2)c2ccccc21", "target": "seizure ion channel panel", "assay": "ion current, inhibitor", "scale": "lowest across channels", "endpoint": "lowest IC30", "value": "0.955 µM"}
{"SMILES": "C[C@@H](c1ccc(-n2cnc3c(N)ncnc32)cc1)N1CCc2nn(C)c(Cc3ccccc3)c2C1=O", "target": "FLT3 ITD F691L", "assay": "KINOMEscan", "setting": "100 nM", "scale": "reference: DMSO", "endpoint": "remaining binding", "value": "98%"}
{"SMILES": "Cc1ccc(-n2nc(C(C)(C)C)cc2NC(=O)NCc2cc(F)ccc2Oc2ccc3c(cnn3CCO)c2)cc1", "target": "NLRP3 inflammasome (mouse)", "test system": "mouse BMDM", "setting": "10 µM", "endpoint": "inhibition", "value": "-31.9%"}
{"SMILES": "CN(C)CCOC1=Cc2ccccc2Sc2ccc(Cl)cc21", "target": "seizure ion channel panel", "assay": "ion current, inhibitor", "scale": "lowest across channels", "endpoint": "lowest IC30", "value": "2.71 µM"}
{"SMILES": "O=C(Nc1cc(Oc2cc(F)c(NC(=O)C3(C(=O)Nc4ccc(F)cc4)CC3)cc2F)ccn1)C1CC1", "target": "NLRP3 inflammasome (mouse)", "test system": "mouse BMDM", "setting": "10 µM", "endpoint": "inhibition", "value": "-15.6%"}
{"SMILES": "CC(C)NCC(O)COc1cccc2ccccc12 (stereo not shown)", "target": "seizure ion channel panel", "assay": "ion current, inhibitor", "scale": "lowest across channels", "endpoint": "lowest IC30", "value": "5.24 µM"}
{"SMILES": "O=C1OC2(c3ccc(O)cc3Oc3cc(O)ccc32)c2ccccc21", "target": "anti-compound antibody Fv", "assay": "T-cell killing, split BiTE reconstitution", "test system": "SK-BR-3", "endpoint": "EC50", "value": "0.2 µM"}
{"SMILES": "COc1cc(F)c(F)c(Nc2ccc(I)cc2F)c1NS(=O)(=O)C1(C[C@H](O)CO)CC1", "target": "NLRP3 inflammasome (mouse)", "test system": "mouse BMDM", "setting": "10 µM", "endpoint": "inhibition", "value": "-37.2%"}
{"SMILES": "N=C(NCCCN)NCCCSC[C@H]1O[C@@H](n2cnc3c(NCCCc4ccccc4)ncnc32)[C@H](O)[C@@H]1O", "target": "CamA DNA adenine methyltransferase (Clostridioides difficile)", "assay": "enzyme activity, inhibitor, MTase-Glo luminescence (SAH)", "setting": "10 µM, 3 min, pH 7.5, 22 °C, with: SAM 40 µM", "endpoint": "inhibition", "value": "< 10%"}
{"SMILES": "CCN=C1C=CC(=C(c2ccc(N(CC)CC)cc2)c2ccc(N(CC)CC)cc2)c2ccccc21.Cl", "target": "androgen receptor pathway", "assay": "antagonist", "setting": "concentration not given", "scale": "direction not given", "endpoint": "AUC antagonist score", "value": 0.814}
{"SMILES": "Nc1cc(C(F)(F)F)c(-c2nc(N3CCOCC3)nc(N3CCOCC3)n2)cn1", "target": "NLRP3 inflammasome (mouse)", "test system": "mouse BMDM", "setting": "10 µM", "endpoint": "inhibition", "value": "39.5%"}
{"SMILES": "N=C(NCCCSC[C@H]1O[C@@H](n2cnc3c(NCCCc4ccccc4)ncnc32)[C@H](O)[C@@H]1O)NCC1CC1", "target": "CamA DNA adenine methyltransferase (Clostridioides difficile)", "assay": "enzyme activity, inhibitor, MTase-Glo luminescence (SAH)", "setting": "10 µM, 3 min, pH 7.5, 22 °C, with: SAM 40 µM", "endpoint": "inhibition", "value": "< 10%"}
{"SMILES": "COc1cnc(Nc2cccc(S(N)(=O)=O)c2)nc1N1CCN(c2ccccc2)CC1", "target": "human FLT3 ITD/D835V", "assay": "binding, KINOMEscan", "setting": "1000 nM", "scale": "lower = stronger binding", "endpoint": "percent of control", "value": "75%"}
{"SMILES": "N#CC1(c2ccc(NC(=O)c3cccnc3NCc3ccncc3)cc2)CCCC1", "target": "NLRP3 inflammasome (mouse)", "test system": "mouse BMDM", "setting": "10 µM", "endpoint": "inhibition", "value": "64.2%"}
{"SMILES": "Oc1ccccc1-c1n[nH]cc1-c1ccnc2ccccc12", "target": "NPR1 (Candida albicans)", "assay": "kinase binding, MIB/MS competition", "test system": "Candida albicans lysate", "setting": "1 µM", "scale": "reference: DMSO", "endpoint": "log2 fold change", "value": 0.06}
{"SMILES": "CCCN(CCC)CCc1cccc2c1CC(=O)N2", "target": "seizure ion channel panel", "assay": "ion current, inhibitor", "scale": "lowest across channels", "endpoint": "lowest IC30", "value": "> 30 µM"}
{"SMILES": "N#Cc1ccc2c(-c3ccncc3)c(-c3ccc(F)cc3)nn2c1", "target": "orf19.3456 kinase Candida albicans", "assay": "MIB/MS competition binding", "test system": "Candida albicans cell lysate", "setting": "100 nM", "scale": "reference: DMSO, lower = stronger binding", "endpoint": "log2 fold change", "value": 0.231}
{"SMILES": "CNC(=O)[C@@H]1CC[C@@H](n2c(-c3ccc4cnccc4c3)nc3ccc(C(=O)NCc4cccc(C(N)=O)c4)cc32)C1", "target": "human FLT3 ITD/D835V", "assay": "binding, KINOMEscan", "setting": "1000 nM", "scale": "lower = stronger binding", "endpoint": "percent of control", "value": "100%"}
{"SMILES": "O=C(Nc1c[nH]nc1C(=O)NC1CCNCC1)c1cc(F)cc(F)c1", "target": "human FLT3 ITD D835V", "assay": "scanMAX", "setting": "1 µM", "scale": "reference: control", "endpoint": "remaining binding", "value": "89%"}
{"SMILES": "C=CC(=O)N1CCC(COCC(=O)N2CCN(c3nc(-c4cnc(N)nc4C(F)F)nc(N4CCOC[C@@H]4C)n3)CC2)CC1", "target": "FLT3 ITD", "assay": "KINOMEscan", "setting": "1 µM", "endpoint": "remaining binding", "value": "95%"}
{"SMILES": "O=C1NC(=O)/C(=C/c2ccc(OCCNc3nc4c(cnn4C4CCCC4)c(=O)[nH]3)c(F)c2)S1", "target": "PDE1B, PDE9", "scale": "reference: PDE9 IC50 over PDE1B IC50", "endpoint": "selectivity ratio", "value": "6 fold"}
{"SMILES": "FC(F)(F)c1ccc(/C=C/c2nc(COc3ccc(CCCCn4ccnn4)cc3)co2)cc1", "target": "NLRP3 inflammasome (mouse)", "test system": "mouse BMDM", "setting": "10 µM", "endpoint": "inhibition", "value": "-52.9%"}
{"SMILES": "Nc1nc2ccc(OC(F)(F)F)cc2s1", "target": "seizure ion channel panel", "assay": "ion current, inhibitor", "scale": "lowest across channels", "endpoint": "lowest IC30", "value": "12 µM"}
